Measurements from different studies.
Each numbered part is a random draw from the data of one study; scales do not carry over between parts. Positions count from the first letter of the parent shown.

Series 1
Target: Histone acetyltransferase KAT6A, winged helix 1, GST fusion (KAT6A, Homo sapiens, UniProt Q92794, residues 1-85)
Technique: protein binding microarray
Molecule type: double-stranded DNA, one strand shown
Sample: in vitro
Tested at: not given
Notes: 8-mer, flanks averaged, mean of 2 arrays, mostly near background
Baseline: not given
Direction: higher = stronger binding
Endpoint: E-score
Residues (chain): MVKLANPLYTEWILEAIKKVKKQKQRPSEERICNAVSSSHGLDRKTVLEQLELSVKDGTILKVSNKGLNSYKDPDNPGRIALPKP
Sequence = CTCATAGC; value = -0.112
Sequence = ACGTAAAA; value = -0.07
Sequence = CCATACTA; value = -0.0848
Sequence = AAGCAAGG; value = -0.236
Sequence = ACTCGTAC; value = 0.0108
Sequence = AAGATTTA; value = -0.105
Sequence = GTTAATAA; value = -0.0395

Series 2
Target: CCNB3, cyclin fold, Cln2 fusion (human)
Technique: yeast growth competition, sequencing
Sample: yeast
Notes: weak parent motif
Baseline: not given
Direction: higher = stronger binding
Endpoint: normalised enrichment score
Parent: CDKN1B docking peptide (human); PSACRNLFGPVDH
Variant = DSACRNLFGPVDH [P1D]; value = 0.0158
Variant = PSACRNLFGPVKH [D12K]; value = 0.393
Variant = PSATRNLFGPVDH [C4T]; value = 0.121
Variant = PSACRNLFGPVDS [H13S]; value = 0.0992
Variant = PSACRNLFGPPDH [V11P]; value = 0.291
Variant = PSACRCLFGPVDH [N6C]; value = 0.549
Variant = PAACRNLFGPVDH [S2A]; value = 0.482

Series 3
Target: Ras GTPase-activating protein-binding protein 1, RRM domain (G3BP1, Homo sapiens, UniProt Q13283)
Sequence of UniProt Q13283 (whole entry, looked up): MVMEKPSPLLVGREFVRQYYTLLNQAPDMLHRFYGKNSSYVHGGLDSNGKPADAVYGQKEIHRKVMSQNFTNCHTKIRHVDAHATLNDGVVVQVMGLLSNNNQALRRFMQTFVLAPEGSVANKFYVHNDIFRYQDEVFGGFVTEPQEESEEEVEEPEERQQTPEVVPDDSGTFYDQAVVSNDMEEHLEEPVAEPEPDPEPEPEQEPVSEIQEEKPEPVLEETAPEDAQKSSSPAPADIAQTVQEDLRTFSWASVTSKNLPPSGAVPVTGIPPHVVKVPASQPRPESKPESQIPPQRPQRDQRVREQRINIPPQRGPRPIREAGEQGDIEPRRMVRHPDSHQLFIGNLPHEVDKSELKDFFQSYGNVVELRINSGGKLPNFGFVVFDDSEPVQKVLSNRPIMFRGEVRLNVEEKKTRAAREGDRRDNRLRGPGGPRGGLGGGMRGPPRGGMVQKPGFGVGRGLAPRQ
Technique: RNA Bind-n-Seq
Molecule type: RNA
Sample: in vitro
Tested at: 1 µM
Notes: whole 134-nt RNA, ends assumed
Together with: 150 mM KCl
Baseline: input library
Direction: higher = stronger binding
Endpoint: log2 enrichment
Constant ends, left off below: GGGAGUUCUACAGUCCGACGAUC … UGGAAUUCUCGGGUGUCAAGG
Sequence = GUCCUGUGCUACACAUCGUAUGUACCGAAUCGGGUUUUUUUGGGUUUGGGUUUUUGGGAAAGUAUUAUGUUACGCCGUUCGGAUCUGCAC; value = -0.00668
Sequence = GCAGGAAGUAAAAACAAAUGGAAAUGCUUCGGAUAGUGACAGGGGUGGGGGUUGCUAAGGAAAGGGUGGGAUGGGAGUGGGUAAAGAGUU; value = 0.803
Sequence = UCAAGUCCUGUGCUACACAUCGUAUGUACCGAAUCGGGUUUGGGGUUUGGUUUGGAAAGUAUUAUGUUACGCCGUUCGGAUCUGCACUUC; value = -0.444
Sequence = CAAGUCCUGUGCUACACAUCGUAUGUACCGAAUCGGUUUGGGUUUGGGUUUGGGGAAAGUAUUAUGUUACGCCGUUCGGAUCUGCACUUC; value = -0.287
Sequence = AAGUCCUGUGCUACACAUCGUAUGUACCGAAUCGGAAAAAGGAAAAAAAGGAAAGGAAAGUAUUAUGUUACGCCGUUCGGAUCUGCACUU; value = -0.0232
Sequence = UGUGCUACACAUCGUAUGUACCGAAUCGGGGAAAAAAAGGGGAAAAAAAGGGAAAAAAAGGGAAAGUAUUAUGUUACGCCGUUCGGAUCU; value = 0.181
Sequence = CACAGACAACACGCACCCACACAGACACAGAGGGAAGGGGAAAGGAUGGGGACAGGGUGCACAGCAGGGCGGGGUAGGACCCCAGCCCCU; value = -0.17

Single results of other studies
Substance = PhoQ, residues 284 288 289 292 302 303 SNSSNI; target = PhoP, residues 12 14 15 18 19 NHFIF (Escherichia coli, UniProt P23836); assay = Sort-seq, item: YFP reporter; system = E. coli; setting = PhoQ-PhoP variant library, together with: 10 µM Mg2+; scale = baseline: high Mg2+ state, higher = stronger signaling; endpoint = fold induction; value = 9.27

Some of these lines once more (single results of other studies):
Substance = PhoQ, residues 284 288 289 292 302 303 SNSSNI; target = PhoP, residues 12 14 15 18 19 NHFIF (Escherichia coli, UniProt P23836); assay = Sort-seq, item: YFP reporter; system = E. coli; setting = PhoQ-PhoP variant library, together with: 10 µM Mg2+; scale = baseline: high Mg2+ state, higher = stronger signaling; endpoint = fold induction; value = 9.27
